{"data": "Published values collected from several papers", "note": "Compare with care: the assays were run in different laboratories. ± gives the spread as reported."}
{"Compound": "CN(C)c1ccc2c(-c3cc(C(=O)N4CCN(CCCOc5ccc6nccc(C(=O)NCC(=O)N7CC(F)(F)C[C@H]7C#N)c6c5)CC4)ccc3C(=O)[O-])c3ccc(=[N+](C)C)cc-3oc2c1", "assay": "intravital imaging", "test system": "mouse, blood", "setting": "intravenous, 100 µg", "quantity": "half-life slow phase", "result": "0.168 h"}
{"Compound": "CC12N3Cc4c(OCCCS(=O)(=O)[O-])ccc(OCCCS(=O)(=O)[O-])c4CN1C(=O)N1CN4C(=O)N5Cc6c(OCCCS(=O)(=O)[O-])ccc(OCCCS(=O)(=O)[O-])c6CN6C(=O)N(CN(C3=O)C12C)C4(C)C65C.[Na+].[Na+].[Na+].[Na+] (stereo not drawn)", "setting": "pD 7.4, together with: camptothecin", "quantity": "phase solubility slope", "result": "0.16 ± 0.0043"}
{"Compound": "Cc1ccc(OCC(=O)N(Cc2cccs2)c2ccn[nH]2)cc1", "test system": "male beagle dog, plasma", "setting": "intravenous, 1 mg/kg, single dose", "quantity": "AUC(0-t)", "result": "942 ng·h/mL"}
{"Compound": "[11CH3]c1ccc2nc(C3CCC3)n(-c3ccc4[nH]ncc4c3)c2n1", "assay": "extrapolated from mouse biodistribution", "test system": "standard human, red marrow", "quantity": "absorbed dose", "result": "2.5 µSv/MBq"}
{"Compound": "NC(=O)c1ccc(C(=O)NOCc2ccc(Sc3cccc(Cl)c3)c(C(F)(F)F)c2)cc1", "test system": "male ICR mouse, plasma", "setting": "intraperitoneal, 30 mg/kg", "quantity": "AUC(0-t)", "result": "24500 ng·h/mL"}
{"Compound": "CC(C)(Sc1ccncc1-c1ccc(C#N)c2ccccc12)C(=O)OC1OC(C(=O)O)C(O)C(O)C1O (stereo not drawn)", "test system": "plasma", "setting": "oral, 15 mg, severe renal impairment, fasted", "quantity": "terminal half-life", "result": "21.2 h"}
{"Compound": "C#CCOc1ccc(/C=C2\\SC(=O)N(CC(=O)NCc3ccccc3)C2=O)cc1", "assay": "inverse Kirkwood-Buff integrals", "test system": "binary solvent mixture", "setting": "concentration not given, 298.15 K, mole fraction x1 0.55", "quantity": "correlation volume", "result": "4250 cm³/mol"}
{"Compound": "C=C(c1cc(F)c(C(=O)O)c(F)c1)c1cc2c(cc1C)C(C)(C)CCC2(C)C", "test system": "Sprague-Dawley rat, male, plasma", "setting": "oral, 100 mg/kg, 6 h, sesame oil vehicle", "quantity": "HDL level", "result": "52 ± 10.8 mg/dL"}
{"Compound": "CC(C)(O)c1ncc([S@](N)(=O)=NC(=O)Nc2c3c(cc4c2CCC4)CCC3)s1", "test system": "healthy human, fasted", "setting": "oral, 30 mg single dose, capsule formulation", "quantity": "AUC(0-last)/dose", "result": "923 ng·h/mL/mg"}
{"Compound": "COc1ccc(/C=C/c2ccc(-c3ccc(C)cn3)nc2)cc1", "test system": "DMSO", "setting": "together with: quinine bisulfate reference", "quantity": "fluorescence quantum yield", "result": 0.48}
{"Compound": "CCCC[C@H](NC(=O)CNC(=O)CNC(=O)CN1CCN(CC(=O)O)CCN(CC(=O)O)CCN(CC(=O)O)CC1)C(=O)N[C@H]1CC(=O)NCCCC[C@@H](C(N)=O)NC(=O)[C@H](Cc2c[nH]c3ccccc23)NC(=O)[C@H](CCCNC(=N)N)NC(=O)[C@@H](Cc2ccccc2)NC(=O)[C@H](Cc2c[nH]cn2)NC1=O [gallium-67 labelled]", "test system": "female C57 mice, B16/F1 melanoma", "setting": "intravenous, 0.037 MBq, 2 h", "scale": "baseline: tumour over liver", "quantity": "tumour to tissue ratio", "result": 29.7}
{"Compound": "CCc1cc2c(N3CCN([11C](=O)c4ccc(-c5ccccc5)cc4)CC3)nc(N3CCNC(=O)C3)nc2s1", "assay": "PET", "test system": "Wistar rats, male, whole body", "setting": "intravenous, dose not given, together with: tariquidar 15 mg/kg iv, 30 min before", "scale": "baseline: baseline", "quantity": "radioactivity increase", "result": "2 to 3 fold"}
{"Compound": "OC1(C(F)(F)F)CCN(c2nc(Nc3ccnc(C(F)(F)F)c3)nc(-c3cccc(C(F)(F)F)n3)n2)C1 (stereo not drawn)", "test system": "monkey", "setting": "at least 3 mg/kg, repeated-dose toxicity", "quantity": "thymus volume and weight", "result": "decreased"}
{"Compound": "CCC(=O)NC1CC=C(c2cc3c(Nc4ccc5scnc5c4)ncnc3s2)CC1 (stereo not drawn)", "test system": "BALB/c mouse, plasma", "setting": "oral, 10 mg/kg, 30 min", "quantity": "concentration", "result": "453 ng/mL"}
{"Compound": "Cc1cccc(-c2cccc(C)n2)n1.O.O.[Cl-].[Cl-].[Ru+2].c1ccc(-c2ccnc3c2ccc2c(-c4ccccc4)ccnc23)cc1", "test system": "phosphate buffer with NaCl", "setting": "pH 7.4, 37 °C, photoactivated, dialysis", "quantity": "release from nanoassemblies", "result": "55.9%"}
{"note": "Repeated from above:"}
{"Compound": "CCC(=O)NC1CC=C(c2cc3c(Nc4ccc5scnc5c4)ncnc3s2)CC1 (stereo not drawn)", "test system": "BALB/c mouse, plasma", "setting": "oral, 10 mg/kg, 30 min", "quantity": "concentration", "result": "453 ng/mL"}
